Results pooled from the literature.
Each numbered part is a random draw from the data of one study; scales do not carry over between parts. Several values in a cell are separate wells, animals, samples, runs or records. ± marks the error that the study gave.
UniProt O94806, sequence (whole entry, looked up): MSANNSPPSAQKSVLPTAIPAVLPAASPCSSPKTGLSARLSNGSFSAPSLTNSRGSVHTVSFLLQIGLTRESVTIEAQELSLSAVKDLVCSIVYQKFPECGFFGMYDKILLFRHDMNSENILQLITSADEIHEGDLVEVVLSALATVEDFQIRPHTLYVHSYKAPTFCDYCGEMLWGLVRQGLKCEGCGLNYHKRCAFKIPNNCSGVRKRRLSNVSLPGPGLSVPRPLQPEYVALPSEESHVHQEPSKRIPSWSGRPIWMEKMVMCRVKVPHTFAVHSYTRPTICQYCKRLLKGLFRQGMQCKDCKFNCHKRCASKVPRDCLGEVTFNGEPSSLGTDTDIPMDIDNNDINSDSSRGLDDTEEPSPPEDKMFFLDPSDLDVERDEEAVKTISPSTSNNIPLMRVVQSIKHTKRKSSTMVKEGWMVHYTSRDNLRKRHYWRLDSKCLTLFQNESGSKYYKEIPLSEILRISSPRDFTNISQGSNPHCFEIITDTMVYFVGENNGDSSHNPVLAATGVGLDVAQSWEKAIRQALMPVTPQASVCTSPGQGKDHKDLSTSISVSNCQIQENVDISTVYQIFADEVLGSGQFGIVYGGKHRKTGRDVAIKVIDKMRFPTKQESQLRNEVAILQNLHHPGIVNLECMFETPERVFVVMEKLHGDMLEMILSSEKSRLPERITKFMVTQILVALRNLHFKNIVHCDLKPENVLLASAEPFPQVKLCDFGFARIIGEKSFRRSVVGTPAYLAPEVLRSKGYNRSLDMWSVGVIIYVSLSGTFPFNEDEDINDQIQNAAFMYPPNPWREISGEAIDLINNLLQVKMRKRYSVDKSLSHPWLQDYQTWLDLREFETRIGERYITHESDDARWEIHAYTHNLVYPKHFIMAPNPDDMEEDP
UniProt P06241, sequence (whole entry, looked up): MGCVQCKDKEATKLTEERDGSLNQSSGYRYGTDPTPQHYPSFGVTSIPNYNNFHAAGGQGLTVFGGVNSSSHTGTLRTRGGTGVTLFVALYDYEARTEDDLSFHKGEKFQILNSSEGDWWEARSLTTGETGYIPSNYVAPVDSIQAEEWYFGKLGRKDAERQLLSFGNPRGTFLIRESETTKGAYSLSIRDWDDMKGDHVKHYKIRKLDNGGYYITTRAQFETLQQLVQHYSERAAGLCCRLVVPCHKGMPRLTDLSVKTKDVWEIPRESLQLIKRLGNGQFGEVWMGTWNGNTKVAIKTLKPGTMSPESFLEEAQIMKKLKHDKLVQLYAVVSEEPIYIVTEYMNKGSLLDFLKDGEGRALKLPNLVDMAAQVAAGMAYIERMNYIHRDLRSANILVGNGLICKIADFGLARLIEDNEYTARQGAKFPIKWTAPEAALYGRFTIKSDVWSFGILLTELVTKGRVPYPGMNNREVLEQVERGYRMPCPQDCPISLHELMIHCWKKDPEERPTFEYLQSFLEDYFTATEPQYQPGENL

Block 1 — quantity: inhibition
Structure (SMILES): Cc1ccc(O)c(C)c1-c1cnc2[nH]c(-c3cnc(N4CCC(CN5CCN(c6ccc7c(c6F)CN(C6CCC(=O)NC6=O)C7=O)CC5)CC4)nc3)cc2c1C#N (centres unmarked)
Target: Membrane-associated tyrosine- and threonine-specific cdc2-inhibitory kinase (PKMYT1, Homo sapiens, UniProt Q99640)
Residues (Q99640 1-499): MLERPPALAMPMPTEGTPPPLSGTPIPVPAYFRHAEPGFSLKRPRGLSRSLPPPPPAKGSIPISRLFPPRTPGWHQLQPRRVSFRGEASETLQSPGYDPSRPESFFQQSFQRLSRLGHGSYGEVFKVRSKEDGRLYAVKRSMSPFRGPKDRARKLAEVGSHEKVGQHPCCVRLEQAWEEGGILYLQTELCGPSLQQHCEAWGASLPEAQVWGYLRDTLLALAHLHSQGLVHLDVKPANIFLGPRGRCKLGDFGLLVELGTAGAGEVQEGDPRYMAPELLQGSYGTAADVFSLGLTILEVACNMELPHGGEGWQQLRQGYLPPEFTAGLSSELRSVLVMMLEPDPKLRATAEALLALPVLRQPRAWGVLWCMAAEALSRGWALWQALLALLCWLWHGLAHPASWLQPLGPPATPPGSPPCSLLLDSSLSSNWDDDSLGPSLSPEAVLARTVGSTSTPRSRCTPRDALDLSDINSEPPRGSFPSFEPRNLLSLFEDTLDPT
cell-free assay, inhibitor, TR-FRET; 1.37 nM: 10.5%
cell-free assay, inhibitor, TR-FRET; 12.35 nM: 85.7%
1 µM: 99.1%
cell-free assay, inhibitor, TR-FRET; 1 µM: 98.7%
cell-free assay, inhibitor, TR-FRET; 0.1111 µM: 98.5%
0.000152 µM: -5.38%
cell-free assay, inhibitor, TR-FRET; 51 pM: -10.6%
0.03704 µM: 96%
0.00137 µM: 14.2%

Block 2 — technique: DNA microarray; relative to: untreated cells; quantity: mRNA level ratio
Compound: COCC1CC2C(CCC3(C)C(O)CCC23)c2ccc(O)cc21 (centres unmarked)
PANC-1; item: TMEM108; concentration not given, higher dose arm: 1
PANC-1; item: GTSE1; concentration not given, lower dose arm: 0.821
A549; item: AURKA; 100 µM: 0.505
PANC-1; item: MCM10; concentration not given, higher dose arm: 0.485
A549; item: OLIG2; 50 µM: 42.7
A549; item: MCM7; 50 µM: 0.765
PANC-1; item: GZMK; concentration not given, higher dose arm: 1
A549; item: RFC3; 100 µM: 0.652
PANC-1; item: MCM10; concentration not given, lower dose arm: 0.705
PANC-1; item: ISG20L1; concentration not given, lower dose arm: 0.954
SK-OV-3; item: MCM6; concentration not given, lower dose arm: 0.916
PANC-1; item: TMEM108; concentration not given: 3.61
PANC-1; item: KIF20A; concentration not given, lower dose arm: 0.673 and 0.662 and 0.665 and 0.669 and 0.643
A549; item: CDC25B; 100 µM: 1.31
A549; item: GINS1; 100 µM: 0.583
PANC-1; item: GAPDH; concentration not given, higher dose arm: 0.955 and 0.971 and 0.979 and 0.976 and 0.909
SK-OV-3; item: AURKA; concentration not given, higher dose arm: 0.82
PANC-1; item: CCL11; concentration not given, higher dose arm: 1
PANC-1; item: ACTA2; concentration not given, lower dose arm: 0.776
A549; item: IL23R; 100 µM: 17.3
A549; item: AURKA; 50 µM: 0.748

Block 3 — observed: thermal unfolding; technique: differential scanning fluorimetry; tested at: 5.5 µM; reading: higher = more unfolded; quantity: SYPRO Orange fluorescence
SMILES: C[C@@H]1CN(c2ccc(-c3cc(C(=O)NCCOCCOCCOCCOCCOCCOCCNC(=O)/C=C/c4[nH]cc(C(=O)N[C@@H](CC(N)=O)c5ccc(F)c(Cl)c5)c4-c4ccc(Cl)cc4F)ccc3F)cc2NC(=O)c2ccc(F)cc2C(F)(F)F)C[C@H](C)N1C
WDR5: WD repeat-containing protein 5 (WDR5, Homo sapiens, UniProt P61964)
DCAF1: DDB1- and CUL4-associated factor 1 (DCAF1, Homo sapiens, UniProt Q9Y4B6)
UniProt Q9Y4B6, sequence (whole entry, looked up): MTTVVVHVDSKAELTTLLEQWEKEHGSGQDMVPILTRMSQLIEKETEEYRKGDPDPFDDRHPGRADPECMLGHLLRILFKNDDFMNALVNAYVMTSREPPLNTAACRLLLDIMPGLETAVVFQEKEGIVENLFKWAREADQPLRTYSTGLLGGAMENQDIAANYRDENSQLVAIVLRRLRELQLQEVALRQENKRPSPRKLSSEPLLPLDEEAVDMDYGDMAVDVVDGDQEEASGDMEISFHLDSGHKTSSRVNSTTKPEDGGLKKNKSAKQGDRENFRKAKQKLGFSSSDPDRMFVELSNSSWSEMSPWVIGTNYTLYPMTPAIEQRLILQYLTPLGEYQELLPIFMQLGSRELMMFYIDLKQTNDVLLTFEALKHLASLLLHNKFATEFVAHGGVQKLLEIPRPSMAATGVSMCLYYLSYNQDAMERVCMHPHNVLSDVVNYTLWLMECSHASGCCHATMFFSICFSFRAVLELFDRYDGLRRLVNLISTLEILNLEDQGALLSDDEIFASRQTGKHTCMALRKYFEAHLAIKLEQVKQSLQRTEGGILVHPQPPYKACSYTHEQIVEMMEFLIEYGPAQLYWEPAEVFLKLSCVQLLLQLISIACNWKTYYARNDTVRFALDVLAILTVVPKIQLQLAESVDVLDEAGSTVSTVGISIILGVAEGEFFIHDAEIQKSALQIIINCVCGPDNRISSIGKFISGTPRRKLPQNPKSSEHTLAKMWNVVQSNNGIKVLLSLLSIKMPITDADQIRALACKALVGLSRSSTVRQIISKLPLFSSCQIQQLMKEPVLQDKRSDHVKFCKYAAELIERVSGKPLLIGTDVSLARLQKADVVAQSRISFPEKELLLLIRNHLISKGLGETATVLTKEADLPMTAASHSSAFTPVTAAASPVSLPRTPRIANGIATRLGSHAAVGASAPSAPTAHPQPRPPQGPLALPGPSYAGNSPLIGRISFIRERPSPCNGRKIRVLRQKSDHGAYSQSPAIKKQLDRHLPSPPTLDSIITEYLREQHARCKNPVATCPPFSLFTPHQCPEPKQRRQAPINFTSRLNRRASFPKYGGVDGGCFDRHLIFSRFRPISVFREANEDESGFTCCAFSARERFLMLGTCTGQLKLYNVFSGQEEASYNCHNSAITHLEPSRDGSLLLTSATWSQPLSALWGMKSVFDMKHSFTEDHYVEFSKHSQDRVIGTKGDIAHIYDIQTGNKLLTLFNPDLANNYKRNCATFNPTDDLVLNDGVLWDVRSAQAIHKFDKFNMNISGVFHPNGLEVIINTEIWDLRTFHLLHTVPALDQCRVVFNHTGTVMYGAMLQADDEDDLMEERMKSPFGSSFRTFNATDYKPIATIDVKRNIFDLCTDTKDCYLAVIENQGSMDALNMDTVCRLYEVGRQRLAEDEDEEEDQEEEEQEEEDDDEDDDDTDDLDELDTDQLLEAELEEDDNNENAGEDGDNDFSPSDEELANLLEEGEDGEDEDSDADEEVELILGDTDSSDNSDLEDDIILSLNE
WDR5; 32.8 °C: 13800 a.u.
WDR5; 59.01 °C: 15600 a.u.
WDR5; 48.8 °C: 15800 a.u.
DCAF1; 47.4 °C: 16100 a.u.
DCAF1; 90.21 °C: 32200 a.u.
DCAF1; 46.4 °C: 15300 a.u.
WDR5; 68.81 °C: 23800 a.u.
WDR5; 85.61 °C: 61300 a.u.
DCAF1; 27 °C: 7580 a.u.
WDR5; 29.4 °C: 13500 a.u.
WDR5; 54.41 °C: 16900 a.u.

Block 4 — cell line: MDA-MB-231; technique: qRT-PCR; time: 6 h; setting: unit not given; quantity: mRNA level
Structure (SMILES): CCN(CC)CC(=O)N1CCN(c2nc(NCc3nc4cc(Cl)c(Cl)cc4[nH]3)c3ncn(CC)c3n2)CC1
item: RAD51; 0.05 µM; relative to: DMSO: 0.288 and 0.325 and 0.271
item: ATR; 50 nM; relative to: untreated: 0.406
item: FANCD2; 0.05 µM; relative to: DMSO: 0.532 and 0.485 and 0.517
item: RAD51; 50 nM; relative to: untreated: 0.295
item: SMARCC2; 0.05 µM; relative to: DMSO: 0.632 and 0.617 and 0.611
item: BRCA1; 50 nM; relative to: untreated: 0.299
item: FANCD2; 50 nM; relative to: untreated: 0.511
item: ATM; 0.05 µM; relative to: DMSO: 0.419 and 0.388 and 0.406

Block 5 — observed: membrane potential; technique: FLIPR membrane potential; cells: CHO-BC cells; tested at: concentration not given; setting: first screen; relative to: uninhibited control; quantity: normalised transport activity
Target: Sodium-dependent neutral amino acid transporter B(0)AT1 (SLC6A19, Homo sapiens, UniProt Q695T7)
UniProt Q695T7, sequence (whole entry, looked up): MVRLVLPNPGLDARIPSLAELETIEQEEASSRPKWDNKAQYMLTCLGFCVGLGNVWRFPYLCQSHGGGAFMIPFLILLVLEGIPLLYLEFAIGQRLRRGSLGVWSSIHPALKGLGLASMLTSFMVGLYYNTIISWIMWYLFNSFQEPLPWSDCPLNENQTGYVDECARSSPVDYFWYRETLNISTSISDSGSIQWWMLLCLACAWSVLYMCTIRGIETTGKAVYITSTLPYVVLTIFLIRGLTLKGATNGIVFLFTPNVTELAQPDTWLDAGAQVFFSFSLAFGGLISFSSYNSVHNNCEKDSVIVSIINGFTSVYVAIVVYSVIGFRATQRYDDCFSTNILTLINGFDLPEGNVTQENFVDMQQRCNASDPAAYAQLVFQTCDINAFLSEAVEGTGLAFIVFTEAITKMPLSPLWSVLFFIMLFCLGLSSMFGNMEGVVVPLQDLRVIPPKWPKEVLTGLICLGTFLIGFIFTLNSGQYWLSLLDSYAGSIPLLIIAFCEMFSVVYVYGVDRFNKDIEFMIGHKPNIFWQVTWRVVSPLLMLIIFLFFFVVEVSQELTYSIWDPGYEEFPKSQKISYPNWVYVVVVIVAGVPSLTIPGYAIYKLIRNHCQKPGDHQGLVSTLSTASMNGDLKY
CCCNC(=O)COc1cc(C)c(Cl)c(C)c1: 0.544 and 0.614 and 0.507 and 0.481
CCC(C)NC(=O)COc1cc(C)c(Cl)c(C)c1 (racemic): 0.854 and 1.18 and 1.07 and 1.02
Cc1cc(OCC(=O)NCC(C)C)cc(C)c1Cl: 0.959 and 0.976 and 0.934 and 1.03 and 0.923
Cc1cc(OCC(=O)NCCc2ccccc2)cc(C)c1Cl: 1.01 and 0.868 and 0.984 and 0.924
Cc1cc(OCC(=O)SC(C)C)cc(C)c1Cl: 1.33 and 1.1 and 1.29 and 1.06
Cc1cc(OCC(=O)NC(C)C)cc(C)c1Cl: 0.666 and 0.779 and 0.683 and 0.643
Cc1cc(OCC(=O)NC(C)(C)C)cc(C)c1Cl: 1.11 and 1.05 and 1.08 and 1.06
CC(C)NC(=O)COc1ccc(I)cc1: 0.48 and 0.638 and 0.472 and 0.492
CCNC(=O)COc1cc(C)c(Cl)c(C)c1: 0.486 and 0.483 and 0.539 and 0.431 and 0.413
CCCCCCCCNC(=O)COc1cc(C)c(Cl)c(C)c1: 1.19 and 1.04 and 0.872 and 1.1
CON(C)C(=O)COc1cc(C)c(Cl)c(C)c1: 1 and 1.24 and 0.89 and 0.949
Cc1cc(OCC(=O)NCc2ccccc2)cc(C)c1Cl: 0.92 and 0.848 and 1.07 and 0.945
CCCCCCNC(=O)COc1cc(C)c(Cl)c(C)c1: 1.1 and 1.11 and 1.22 and 1 and 0.983
Cc1cc(OC(C)C(=O)NC(C)C)cc(C)c1Cl (racemic): 0.893 and 0.814 and 0.969 and 0.913

Block 6 — tested at: 1 µM; quantity: remaining binding
Structure (SMILES): CCC1(c2cccc(-c3cn(C)nc3C)c2)C2=C(Nc3n[nH]cc31)C(F)C(C)(C)CC2=O (single isomer, unassigned)
CLK1 (Homo sapiens, UniProt P49759); binding, competition with immobilised ligand: 100%
MAPK1 (Homo sapiens, UniProt P28482); binding, competition with immobilised ligand: 91%
FYN (Homo sapiens, UniProt P06241); binding, competition with immobilised ligand: 100%
MAP3K9 (Homo sapiens, UniProt P80192); binding, competition with immobilised ligand: 100%
EPHA4 (Homo sapiens, UniProt P54764); kinase binding, KINOMEscan; relative to: DMSO control: 86%
RIPK4 (Homo sapiens, UniProt P57078); binding, competition with immobilised ligand: 74%
LRRK2 (Homo sapiens, UniProt Q5S007, G2019S); binding, competition with immobilised ligand: 92%
IRAK4 (Homo sapiens, UniProt Q9NWZ3); binding, competition with immobilised ligand: 99%
MAP2K6 (Homo sapiens, UniProt P52564); binding, competition with immobilised ligand: 100%
IRAK1 (Homo sapiens, UniProt P51617); binding, competition with immobilised ligand: 85%
PRKD3 (Homo sapiens, UniProt O94806); binding, competition with immobilised ligand: 77%
RIPK1 (Homo sapiens, UniProt Q13546); kinase binding, KINOMEscan; relative to: DMSO control: 100%
CDC42BPB (Homo sapiens, UniProt Q9Y5S2); kinase binding, KINOMEscan; relative to: DMSO control: 100%
EPHA8 (Homo sapiens, UniProt P29322); kinase binding, KINOMEscan; relative to: DMSO control: 100%
CHEK1 (Homo sapiens, UniProt O14757); binding, competition with immobilised ligand: 83%

Block 7 — technique: qRT-PCR; host: mouse, PK-59 xenograft; matrix: tumour; setting: unit not given; quantity: mRNA level
Structure (SMILES): Cc1ncsc1-c1ccc(C(CO)NC(=O)C2CC(O)CN2C(=O)C(C(C)C)n2cc(-c3ccc(COc4c(-c5c(C)c(F)cc6[nH]ncc56)c(C5CC5)cc5c(N6CC7CC6CN7)nc(OC6CCOCC6)nc45)cc3)nn2)cc1 (centres unmarked)
item: DUSP6; 30 mg/kg, 6 h; relative to: vehicle: 0.0757 and 0.076 and 0.055 and 0.0551 and 0.042 and 0.0418
item: MYC; intravenous, 10 mg/kg, 2 h; relative to: vehicle, same time point: 0.0607 and 0.0417 and 0.0677
item: FOSL1; 10 mg/kg, 72 h; relative to: vehicle: 0.149 and 0.134 and 0.147
item: FOSL1; 10 mg/kg, 144 h; relative to: vehicle: 0.36 and 0.227 and 0.238
item: SPRY4; 30 mg/kg, 48 h; relative to: vehicle: 0.033 and 0.0334 and 0.06 and 0.0599
item: ETV4; intravenous, 10 mg/kg, 6 h; relative to: vehicle, same time point: 0.0126 and 0.0111 and 0.00691
item: MYC; intravenous, 30 mg/kg, 6 h; relative to: vehicle, same time point: 0.0323 and 0.0306 and 0.0288

Block 8 — observed: enzyme activity; action: inhibitor; technique: fluorescence; quantity: inhibition
SMILES: Cc1cc2c([nH]1)c(=O)[nH]c(=S)n2Cc1cccc(OC/C(=C/F)CN)c1
MPO: Myeloperoxidase (MPO, Homo sapiens, UniProt P05164)
UniProt P05164, sequence (whole entry, looked up): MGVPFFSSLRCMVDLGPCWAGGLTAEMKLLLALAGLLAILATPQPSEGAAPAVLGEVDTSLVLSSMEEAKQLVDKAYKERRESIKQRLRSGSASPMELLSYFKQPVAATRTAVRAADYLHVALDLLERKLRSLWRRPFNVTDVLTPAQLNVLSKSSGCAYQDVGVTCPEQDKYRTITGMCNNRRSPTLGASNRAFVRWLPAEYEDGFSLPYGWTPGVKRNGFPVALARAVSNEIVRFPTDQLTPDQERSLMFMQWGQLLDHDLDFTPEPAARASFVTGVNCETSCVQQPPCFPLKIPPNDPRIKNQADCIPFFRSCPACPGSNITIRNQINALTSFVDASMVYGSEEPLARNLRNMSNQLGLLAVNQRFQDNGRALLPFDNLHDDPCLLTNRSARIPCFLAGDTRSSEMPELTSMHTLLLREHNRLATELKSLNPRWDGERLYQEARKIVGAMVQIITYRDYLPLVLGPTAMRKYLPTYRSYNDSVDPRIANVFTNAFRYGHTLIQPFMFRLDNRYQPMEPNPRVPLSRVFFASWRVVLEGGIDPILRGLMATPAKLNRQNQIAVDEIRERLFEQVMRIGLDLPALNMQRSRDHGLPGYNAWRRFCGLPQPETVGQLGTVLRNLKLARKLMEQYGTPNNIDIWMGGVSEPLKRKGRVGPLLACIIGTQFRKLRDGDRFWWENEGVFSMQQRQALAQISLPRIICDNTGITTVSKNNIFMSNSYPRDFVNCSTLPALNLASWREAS
AOC3: Amine oxidase [copper-containing] 3 (AOC3, Homo sapiens, UniProt Q16853)
UniProt Q16853, sequence (whole entry, looked up): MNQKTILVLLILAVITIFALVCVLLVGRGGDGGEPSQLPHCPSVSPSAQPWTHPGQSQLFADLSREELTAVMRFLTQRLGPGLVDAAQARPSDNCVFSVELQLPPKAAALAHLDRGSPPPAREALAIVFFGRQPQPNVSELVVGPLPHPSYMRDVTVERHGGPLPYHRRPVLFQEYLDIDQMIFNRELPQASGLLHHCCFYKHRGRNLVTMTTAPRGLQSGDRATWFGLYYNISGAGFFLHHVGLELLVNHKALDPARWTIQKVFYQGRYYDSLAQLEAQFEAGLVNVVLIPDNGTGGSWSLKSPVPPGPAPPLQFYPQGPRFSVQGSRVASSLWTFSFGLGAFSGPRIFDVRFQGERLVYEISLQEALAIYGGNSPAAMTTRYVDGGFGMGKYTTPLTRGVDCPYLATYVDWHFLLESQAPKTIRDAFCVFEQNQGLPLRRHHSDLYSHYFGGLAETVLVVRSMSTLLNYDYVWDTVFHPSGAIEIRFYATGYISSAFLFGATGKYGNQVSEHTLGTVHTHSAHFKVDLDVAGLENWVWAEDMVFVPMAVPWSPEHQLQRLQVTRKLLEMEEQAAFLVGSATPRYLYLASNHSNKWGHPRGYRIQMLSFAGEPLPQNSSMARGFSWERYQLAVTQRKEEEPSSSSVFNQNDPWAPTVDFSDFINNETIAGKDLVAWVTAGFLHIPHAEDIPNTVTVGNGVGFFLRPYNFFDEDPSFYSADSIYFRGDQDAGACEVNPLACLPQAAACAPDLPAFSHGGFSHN
MPO; 0.5556 µM: 45.7% and 26.8% and 25%
MPO; 300 pM: -0.5% and -6.04% and 3.42%
MPO; 15 µM: 96.1% and 94% and 96%
MPO; 1.667 µM: 47.3% and 53.1% and 71.5%
AOC3; 1.111 µM: 98.8% and 98.9%
AOC3; 30 µM: 99.9% and 100%
AOC3; 3.333 µM: 99.9% and 99.7%
AOC3; 1.5 nM: 2.14% and 0.628%

Mixed results
COc1cc(-c2nc3ccc(C(=O)NCCCN(C)C)cc3n2C2CCC2)cc(OC)c1OC — apparent clearance CL/F (mouse, male; oral gavage, 50 mg/kg): 1.6 ± 0.36 mg/(h·µmol/L)/kg
CNC(=O)[C@H]1CC[C@H](n2c(-c3cc(OC)c(OC)c(OC)c3)nc3ccc(C(=O)NCCCN4CCN(c5ccccc5)CC4)cc32)C1 — Kd (ACVRL1 (Homo sapiens, UniProt P37023); binding, TR-FRET): 14 nM

A few entries again (block 8):
MPO; 300 pM: -0.5% and -6.04% and 3.42%
MPO; 0.5556 µM: 45.7% and 26.8% and 25%
AOC3; 3.333 µM: 99.9% and 99.7%
AOC3; 1.111 µM: 98.8% and 98.9%
AOC3; 1.5 nM: 2.14% and 0.628%
MPO; 1.667 µM: 47.3% and 53.1% and 71.5%
MPO; 15 µM: 96.1% and 94% and 96%
AOC3; 30 µM: 99.9% and 100%
